Measurements collected from several papers.
Compare with care: the assays were run in different laboratories. ± gives the spread as reported.
Chain of UniProt Q8N568 (whole entry, looked up): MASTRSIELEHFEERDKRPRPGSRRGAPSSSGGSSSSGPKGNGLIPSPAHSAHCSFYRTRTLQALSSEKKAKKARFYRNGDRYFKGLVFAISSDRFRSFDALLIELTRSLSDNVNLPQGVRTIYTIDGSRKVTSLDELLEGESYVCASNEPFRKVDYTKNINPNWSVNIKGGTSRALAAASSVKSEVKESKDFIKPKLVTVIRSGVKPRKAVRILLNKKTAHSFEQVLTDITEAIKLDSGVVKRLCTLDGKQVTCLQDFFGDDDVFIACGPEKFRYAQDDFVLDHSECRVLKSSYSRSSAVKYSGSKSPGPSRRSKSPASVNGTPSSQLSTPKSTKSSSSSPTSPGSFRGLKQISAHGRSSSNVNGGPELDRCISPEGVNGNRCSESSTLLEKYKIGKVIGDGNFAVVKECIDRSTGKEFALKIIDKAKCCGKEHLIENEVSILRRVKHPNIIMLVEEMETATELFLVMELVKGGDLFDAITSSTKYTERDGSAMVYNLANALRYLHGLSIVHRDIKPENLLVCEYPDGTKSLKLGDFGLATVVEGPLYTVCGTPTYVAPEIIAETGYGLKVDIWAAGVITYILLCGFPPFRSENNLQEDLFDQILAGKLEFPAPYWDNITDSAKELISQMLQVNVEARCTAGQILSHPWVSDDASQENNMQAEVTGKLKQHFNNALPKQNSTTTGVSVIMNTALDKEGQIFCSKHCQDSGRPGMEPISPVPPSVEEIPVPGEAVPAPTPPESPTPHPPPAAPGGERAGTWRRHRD
Chain of UniProt P29322 (whole entry, looked up): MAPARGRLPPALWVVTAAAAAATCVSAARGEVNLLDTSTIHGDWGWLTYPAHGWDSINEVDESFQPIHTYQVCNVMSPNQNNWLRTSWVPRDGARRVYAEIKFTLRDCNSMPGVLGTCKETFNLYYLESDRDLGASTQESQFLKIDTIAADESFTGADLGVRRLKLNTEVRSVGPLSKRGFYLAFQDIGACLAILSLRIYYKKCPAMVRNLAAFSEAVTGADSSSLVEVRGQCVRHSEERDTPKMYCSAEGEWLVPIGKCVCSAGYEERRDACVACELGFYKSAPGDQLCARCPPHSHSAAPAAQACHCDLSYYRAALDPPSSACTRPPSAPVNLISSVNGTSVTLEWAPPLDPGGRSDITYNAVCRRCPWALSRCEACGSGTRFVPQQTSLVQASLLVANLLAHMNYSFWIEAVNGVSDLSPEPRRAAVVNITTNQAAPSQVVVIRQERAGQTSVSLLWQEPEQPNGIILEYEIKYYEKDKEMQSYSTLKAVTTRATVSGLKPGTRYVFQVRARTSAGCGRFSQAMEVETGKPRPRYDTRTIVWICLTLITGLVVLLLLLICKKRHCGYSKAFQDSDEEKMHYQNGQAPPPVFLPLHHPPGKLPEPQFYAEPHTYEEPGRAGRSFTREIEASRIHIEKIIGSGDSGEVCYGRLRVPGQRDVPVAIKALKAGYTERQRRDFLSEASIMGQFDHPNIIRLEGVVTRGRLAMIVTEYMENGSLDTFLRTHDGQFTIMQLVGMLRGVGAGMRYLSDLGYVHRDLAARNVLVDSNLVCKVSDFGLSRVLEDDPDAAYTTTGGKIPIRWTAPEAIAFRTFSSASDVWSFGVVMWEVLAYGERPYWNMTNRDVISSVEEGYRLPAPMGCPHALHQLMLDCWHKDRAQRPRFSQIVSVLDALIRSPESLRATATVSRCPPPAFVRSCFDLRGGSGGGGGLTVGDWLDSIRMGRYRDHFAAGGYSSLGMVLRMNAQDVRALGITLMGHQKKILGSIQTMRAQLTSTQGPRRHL
Chain of UniProt Q15418 (whole entry, looked up): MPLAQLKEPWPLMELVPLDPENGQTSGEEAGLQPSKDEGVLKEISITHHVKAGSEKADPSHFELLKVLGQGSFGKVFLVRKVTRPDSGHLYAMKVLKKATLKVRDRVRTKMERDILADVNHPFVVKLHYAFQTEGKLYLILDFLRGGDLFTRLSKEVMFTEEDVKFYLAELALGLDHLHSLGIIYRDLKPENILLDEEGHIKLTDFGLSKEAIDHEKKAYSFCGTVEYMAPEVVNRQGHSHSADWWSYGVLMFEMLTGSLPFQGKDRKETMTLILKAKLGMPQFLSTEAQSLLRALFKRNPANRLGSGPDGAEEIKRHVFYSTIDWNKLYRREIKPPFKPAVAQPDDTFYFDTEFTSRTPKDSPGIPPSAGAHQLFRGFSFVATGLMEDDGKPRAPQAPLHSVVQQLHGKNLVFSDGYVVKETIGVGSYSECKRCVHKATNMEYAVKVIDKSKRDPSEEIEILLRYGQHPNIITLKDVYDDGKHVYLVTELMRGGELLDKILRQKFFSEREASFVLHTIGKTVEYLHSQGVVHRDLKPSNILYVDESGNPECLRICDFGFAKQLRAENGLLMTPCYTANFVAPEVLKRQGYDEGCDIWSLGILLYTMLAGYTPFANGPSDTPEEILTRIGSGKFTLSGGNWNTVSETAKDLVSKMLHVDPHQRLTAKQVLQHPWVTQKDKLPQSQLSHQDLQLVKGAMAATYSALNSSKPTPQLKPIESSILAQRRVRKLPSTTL
Chain of UniProt Q99759 (whole entry, looked up): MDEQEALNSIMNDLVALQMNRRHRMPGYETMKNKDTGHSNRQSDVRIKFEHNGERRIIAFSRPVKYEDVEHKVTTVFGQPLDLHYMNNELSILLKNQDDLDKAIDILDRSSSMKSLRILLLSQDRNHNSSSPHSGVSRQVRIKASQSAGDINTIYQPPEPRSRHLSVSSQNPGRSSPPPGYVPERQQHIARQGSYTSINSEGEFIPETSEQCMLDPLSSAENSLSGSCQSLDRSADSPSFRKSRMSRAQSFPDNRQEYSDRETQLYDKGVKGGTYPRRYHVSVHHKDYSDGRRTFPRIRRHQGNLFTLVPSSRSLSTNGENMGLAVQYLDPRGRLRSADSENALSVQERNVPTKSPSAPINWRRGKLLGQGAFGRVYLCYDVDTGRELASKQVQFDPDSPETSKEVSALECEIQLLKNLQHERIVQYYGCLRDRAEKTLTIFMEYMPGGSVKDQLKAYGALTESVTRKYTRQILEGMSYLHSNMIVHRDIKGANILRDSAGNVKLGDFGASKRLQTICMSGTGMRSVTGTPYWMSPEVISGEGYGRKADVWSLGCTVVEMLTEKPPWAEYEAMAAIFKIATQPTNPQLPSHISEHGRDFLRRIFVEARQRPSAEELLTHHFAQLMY
Chain of UniProt P25105 (whole entry, looked up): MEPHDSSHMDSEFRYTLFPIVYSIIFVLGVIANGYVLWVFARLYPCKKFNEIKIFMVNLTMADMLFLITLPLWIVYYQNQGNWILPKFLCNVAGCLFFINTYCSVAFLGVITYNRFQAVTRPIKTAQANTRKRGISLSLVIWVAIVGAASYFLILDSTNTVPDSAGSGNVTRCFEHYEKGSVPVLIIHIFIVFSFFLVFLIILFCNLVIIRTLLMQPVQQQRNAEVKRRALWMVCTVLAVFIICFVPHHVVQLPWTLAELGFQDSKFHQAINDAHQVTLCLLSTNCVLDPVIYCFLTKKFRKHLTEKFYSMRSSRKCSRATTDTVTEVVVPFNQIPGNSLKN
Chain of UniProt P34998 (whole entry, looked up): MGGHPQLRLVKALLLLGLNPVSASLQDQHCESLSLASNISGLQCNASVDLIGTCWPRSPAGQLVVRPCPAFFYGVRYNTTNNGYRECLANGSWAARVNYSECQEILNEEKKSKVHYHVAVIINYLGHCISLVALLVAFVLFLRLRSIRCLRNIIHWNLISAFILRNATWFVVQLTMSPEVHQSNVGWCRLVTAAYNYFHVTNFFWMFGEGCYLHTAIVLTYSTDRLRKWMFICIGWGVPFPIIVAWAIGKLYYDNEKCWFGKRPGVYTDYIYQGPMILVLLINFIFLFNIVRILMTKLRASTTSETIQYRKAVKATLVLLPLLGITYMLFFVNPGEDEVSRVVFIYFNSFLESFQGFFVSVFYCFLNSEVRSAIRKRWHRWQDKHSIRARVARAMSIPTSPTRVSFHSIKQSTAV
Chain of UniProt P54760 (whole entry, looked up): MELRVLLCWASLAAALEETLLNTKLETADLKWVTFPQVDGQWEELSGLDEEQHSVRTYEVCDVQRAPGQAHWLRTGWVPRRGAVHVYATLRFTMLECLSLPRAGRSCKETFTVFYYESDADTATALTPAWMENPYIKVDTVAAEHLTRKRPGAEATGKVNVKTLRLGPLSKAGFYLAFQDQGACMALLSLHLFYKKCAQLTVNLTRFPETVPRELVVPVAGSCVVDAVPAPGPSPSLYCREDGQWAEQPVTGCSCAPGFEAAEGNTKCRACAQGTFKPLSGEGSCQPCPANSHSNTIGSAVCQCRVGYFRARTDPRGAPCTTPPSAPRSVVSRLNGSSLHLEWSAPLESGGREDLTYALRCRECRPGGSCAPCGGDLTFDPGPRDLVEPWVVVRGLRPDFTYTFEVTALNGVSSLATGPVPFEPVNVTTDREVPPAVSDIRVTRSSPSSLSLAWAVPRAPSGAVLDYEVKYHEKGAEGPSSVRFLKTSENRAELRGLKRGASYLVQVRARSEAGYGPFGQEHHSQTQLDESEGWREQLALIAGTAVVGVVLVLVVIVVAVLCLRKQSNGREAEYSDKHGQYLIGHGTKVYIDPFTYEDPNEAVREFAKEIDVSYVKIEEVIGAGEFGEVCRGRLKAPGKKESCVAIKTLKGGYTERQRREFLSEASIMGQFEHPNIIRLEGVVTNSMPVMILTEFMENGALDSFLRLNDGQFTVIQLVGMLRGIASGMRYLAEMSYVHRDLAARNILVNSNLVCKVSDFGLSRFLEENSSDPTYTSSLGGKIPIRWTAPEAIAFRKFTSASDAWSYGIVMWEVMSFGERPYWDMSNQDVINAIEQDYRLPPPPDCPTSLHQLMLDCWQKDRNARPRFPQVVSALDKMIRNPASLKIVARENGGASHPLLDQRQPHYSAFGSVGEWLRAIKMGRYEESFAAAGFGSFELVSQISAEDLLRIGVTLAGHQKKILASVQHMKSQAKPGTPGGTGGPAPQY

Structure (SMILES)	target or system	test	system	setting	scale	quantity	value
CC12CCC(=O)C=C1CCC1C2C=C(c2cccnc2)C2(C)C(=O)CCC12 (stereo not shown)	7-alpha-hydroxycholest-4-en-3-one 12-alpha-hydroxylase (Homo sapiens, UniProt Q9UNU6, W281F)	inhibitor	–	80 µM, with: 7α-hydroxycholest-4-en-3-one	–	inhibition	> 40%
Cc1cc(Oc2nc(N3CC[C@@H](c4ccncc4)C3)ncc2F)[nH]n1	MG-63	cell proliferation	bone cancer	–	–	IC50	> 100 µM
CN(C)c1ncnc2c1ncn2[C@@H]1O[C@H](CO)[C@@H](NC(=O)[C@@H](N)CSC(c2ccccc2)c2ccccc2)[C@H]1O	Neprilysin (MME, Homo sapiens, UniProt P08473)	enzyme activity	–	concentration not given	–	inhibition	inactive
Cc1ccc2cc(C(=O)N3CCCC3Cn3ccnc3)ccc2n1 (stereo not shown)	Cholinesterase (BCHE, Homo sapiens, UniProt P06276)	enzyme activity, inhibitor, Ellman	–	10 µM	–	inhibition	35.4%
CC1CCN(C(=O)c2cccc(NC(=O)Nc3ccccc3)c2)CC1	Beta-lactam-inducible penicillin-binding protein (pbp, Staphylococcus aureus, UniProt P07944)	Bocillin-FL labelling, fluorescence polarization	–	50 µM	–	inhibition	no inhibition
CC(C)C[C@H](NC(=O)[C@H](CCCCN)NC(=O)[C@H](CCCCN)NC(=O)Cc1cccc(CNC(=O)[C@@H](C)NC(=N)N)c1)B(O)O	Trypsin (Sus scrofa, UniProt P00761)	enzyme activity, inhibitor	–	100 µM	–	inhibition	38%
C[C@H](NCc1ccc(-c2ccc(C(F)(F)F)cc2)cc1)C(N)=O	AXL (Homo sapiens, UniProt P30530)	cell-free assay, competition with immobilised ligand	–	1 µM	–	inhibition	17%
CCN(CC)CCOc1ccc(-c2nnn(Cc3ccc(OC)cc3)c2N)cc1	Androgen receptor (AR, Homo sapiens, UniProt P10275)	radioligand binding	LNCaP	10 µM, with: 10000 nM radioligand	–	inhibition	-1.23%
COc1ccccc1-c1n[nH]c2nc(N[C@H]3CC[C@H](NS(=O)(=O)CC(C)C)CC3)ncc12	–	bead binding, competition bead pull-down, refers to: LINJ.28.2600	Leishmania donovani extract	10 µM	baseline: vehicle	relative abundance	1.17
CCCCCCCCCCCCCCCCCC(=O)NC[C@H]1CC[C@H](C(=O)N[C@@H](CCC(=O)NCCCOCCOCCOCCCNC(=O)COCC(=O)N[C@@H](Cc2ccc(O)cc2)C(=O)NC(C)(Cc2ccccc2)C(=O)N[C@@H](CC(C)C)C(=O)N[C@@H](CCCC)C(=O)N[C@@H](CCCNC(=N)N)C(=O)N2CCC[C@H]2C(=O)N[C@@H](CCCNC(=N)NC)C(=O)N[C@@H](CC(N)=O)C(N)=O)C(=O)O)CC1 (stereo partly shown)	Apelin receptor (APLNR, Homo sapiens, UniProt P35414)	antagonist, DiscoverX GPCR panel	–	1 µM	–	inhibition	50%
Nc1ccc(/C=C/C(=O)N2CCc3c(oc4c(-c5ccc(F)cc5)cc(-c5ccc(C(=O)N6CCC(F)(F)CC6)cn5)cc34)C2)cn1	STK11 (Homo sapiens, UniProt Q15831)	binding, competition with immobilised ligand	–	1 µM	–	remaining binding	100%
O=S(=O)(F)c1cccc(S(=O)(=O)Nc2ccc(N3CCNCC3)c(F)c2)c1	GTPase KRas, with RAF (KRAS, Homo sapiens, UniProt P01116)	KRAS-RAF interaction, NanoBRET	HEK293T	concentration not given, 24 h	–	inhibition	no inhibition
CN(/N=C/c1ccccc1C(=O)O)c1nc(-c2ccccc2Cl)cs1	EPHA8 (Homo sapiens, UniProt P29322)	enzyme activity, inhibitor	–	1 µM	–	inhibition	-10.8%
COc1ccc(F)cc1S(=O)(=O)Nc1cnc2c(c1)C(=O)NCCO2	AGTR1 (Homo sapiens, UniProt P30556)	ligand displacement, radioligand	–	10 µM	–	inhibition	7%
O=C1NC(=O)c2c1c1cc(F)c[n+]3c1c1c2c2cc(O)ccc2[n]1[Ru-4]312([N]=C=S)[S+]3CC[S+]1CC[S+]2CC3 (stereo not shown)	RPS6KA1 (Homo sapiens, UniProt Q15418)	enzyme activity	–	100 nM, human enzyme, with: 10 µM ATP	baseline: untreated	remaining activity	5%
CN(C)[C@H]1C[C@@]23CC[C@@]4(O2)C(=CC[C@]2(C)[C@@H](c5ccc6ccncc6c5)CC[C@H]24)C=C3[C@@H](O)[C@@H]1O	PIK3CB (Homo sapiens, UniProt P42338)	cell-free assay, inhibitor	–	1 µM	–	inhibition	6.7%

Structure (SMILES)	target or system	test	system	setting	scale	quantity	value
CC[C@@]1(C)Oc2cc(ccc2O)[C@@H](O)[C@H](NC)C(=O)NCC(=O)N[C@@H](C(C)C)C(=O)N[C@@H]1C(=O)NCC(=O)O	Tubulin alpha-1A/beta chain (Sus scrofa, UniProt P02550+P02554)	tubulin polymerization	–	concentration not given	–	inhibition	no inhibition
CC(C)[C@H]1NC(=O)C[C@H]2/C=C/CCSSC[C@@H](NC1=O)C(=O)N[C@H](Cc1cccc3ccccc13)C(=O)NCC(=O)O2	MAP3K3 (Homo sapiens, UniProt Q99759)	–	–	10 µM	–	inhibition	2.6%
CN[C@@H]1[C@H](O)[C@H](NC)[C@H]2O[C@]3(O)[C@H](O[C@@H]2[C@H]1O)O[C@H](C)C[C@H]3NC(=O)Cc1ccc(Cl)cn1	PTAFR (Homo sapiens, UniProt P25105)	ligand displacement, radioligand	–	10 µM	–	inhibition	2%
CC[C@H](C)[C@H](NC(=O)[C@H](CO)NC(=O)[C@H](Cc1ccc(O)cc1)NC(=O)[C@H](Cc1ccc(O)cc1)NC(=O)[C@H](CC(N)=O)NC(=O)CNC(=O)[C@H](CO)NC(=O)[C@H](Cc1ccc(O)cc1)NC(=O)[C@H](CO)NC(=O)[C@H](CO)NC(=O)[C@H](CC(N)=O)NC(=O)COCCOCCNC(=O)CN1CCN(CC(=O)O)CCN(CC(=O)O)CCN(CC(=O)O)CC1)C(=O)N[C@@H](CC(C)C)C(N)=O [copper-64 labelled]	–	dynamic PET	KPC mouse Ptf1a-CreER tdTomato, metastases	intravenous, 4.6 MBq/mouse, 7.5 min, 84 d after tamoxifen	–	tissue uptake	14.8 %ID/mL
CS(C)(=O)=Nc1ccc(-c2ccc(-c3nc4cc(O[C@@H]5CO[C@H]6[C@@H]5OC[C@H]6O)[nH]c4cc3F)cc2)cc1	DCLK2 (Homo sapiens, UniProt Q8N568)	enzyme activity, inhibitor	–	10 µM	–	inhibition	-27%
COc1ccccc1-c1n[nH]c2nc(NC3CCN(C(=O)Cc4ccc(F)cc4F)CC3)ncc12	–	bead binding, competition bead pull-down, refers to: LMJF.21.1090	Leishmania donovani extract	10 µM	baseline: vehicle	relative abundance	0.87
CC(C)(C)C(=O)OCOP(=O)(OCOC(=O)C(C)(C)C)C1CCCN(O)C1=O (stereo not shown)	NCI-H226	–	–	–	–	log LC50	> -4 log M
Cc1ccc2c(n1)c(-c1cccc(S(C)(=O)=O)c1)c(C)n2C/C(F)=C/CN	protein serine/threonine kinase (rat)	–	–	10 µM, rat	–	inhibition	-2%
C=CC(=O)Nc1cc(-c2nn(C3CCC(N4CCN(C(C)=O)CC4)CC3)c3ncnc(N)c23)ccc1Oc1ccccc1 (stereo not shown)	MAST3 (Homo sapiens, UniProt O60307)	inhibitor, KiNativ profiling	biochemical	2 µM	–	inhibition	-3.6%
Cc1cc(C(=O)Nc2nc3cccc(C)c3n2[C@H]2CCCCN(C(=O)/C=C/CN(C)C)C2)ccn1	Trypanosoma brucei	–	STIB795, mouse acute HAT model	oral, 2.5 mg/kg once daily for 4 days, day 10	baseline: mice	survival	0%
CCC1CC(c2ccc(C(=O)O)cc2C)=NN1c1ccc(C#N)c(Cl)c1 (stereo not shown)	KMT5A (Homo sapiens, UniProt Q9NQR1)	enzyme activity, inhibitor	–	10 µM	–	inhibition	9%
Cc1sc2c(c1C)C(c1ccc(Cl)cc1)=N[C@@H](CC(=O)OC(C)(C)C)c1nnc(C)n1-2	Bromodomain-containing protein 3, BD1 (BRD3, Homo sapiens, UniProt Q15059)	isothermal titration calorimetry	–	concentration not given, 15 °C, reverse titration	–	binding stoichiometry	1.07 ± 0.002
N[C@H](C(=O)N1CCCC1)C1CCN(c2nccc3c(-c4ncc(Cl)cc4Cl)cccc23)CC1	CRHR1 (Homo sapiens, UniProt P34998)	functional response, antagonist	–	10 µM	–	inhibition	1%
O=C(O)c1ccccc1/C=N/Nc1nc(-c2ccccc2Cl)cs1	EPHB4 (Homo sapiens, UniProt P54760)	enzyme activity, inhibitor	–	1 µM	–	inhibition	-2.68%
O=C1NC2(CC2)COc2ncc(F)cc2[C@H]2COCCN2c2ccn3ncc1c3n2	–	–	Sprague-Dawley rat, male, serum	oral, 5 mg/kg/day, end of recovery, 4-week subacute toxicity	–	serum total protein	57.7 ± 2.8 g/L

Excerpt of the above:
Structure (SMILES)	target or system	test	system	setting	scale	quantity	value
CCN(CC)CCOc1ccc(-c2nnn(Cc3ccc(OC)cc3)c2N)cc1	Androgen receptor (AR, Homo sapiens, UniProt P10275)	radioligand binding	LNCaP	10 µM, with: 10000 nM radioligand	–	inhibition	-1.23%
Cc1sc2c(c1C)C(c1ccc(Cl)cc1)=N[C@@H](CC(=O)OC(C)(C)C)c1nnc(C)n1-2	Bromodomain-containing protein 3, BD1 (BRD3, Homo sapiens, UniProt Q15059)	isothermal titration calorimetry	–	concentration not given, 15 °C, reverse titration	–	binding stoichiometry	1.07 ± 0.002
CN[C@@H]1[C@H](O)[C@H](NC)[C@H]2O[C@]3(O)[C@H](O[C@@H]2[C@H]1O)O[C@H](C)C[C@H]3NC(=O)Cc1ccc(Cl)cn1	PTAFR (Homo sapiens, UniProt P25105)	ligand displacement, radioligand	–	10 µM	–	inhibition	2%
Cc1cc(Oc2nc(N3CC[C@@H](c4ccncc4)C3)ncc2F)[nH]n1	MG-63	cell proliferation	bone cancer	–	–	IC50	> 100 µM
